Results pooled from the literature.
Each numbered part is a random draw from the data of one study; scales do not carry over between parts. Positions count from the first letter of the parent shown.

Block 1
Target: ABI1, truncated, D143A, DHFR fusion (Arabidopsis thaliana)
Technique: DHFR PCA, deep sequencing
Sample: yeast
Setting: methotrexate growth selection, single substitutions
With: (+)-ABA 0.032 µM
Reference: wild-type fitted maximum
Reading: higher = stronger binding
Starting sequence: PYL1, truncated, DHFR fusion (Arabidopsis thaliana); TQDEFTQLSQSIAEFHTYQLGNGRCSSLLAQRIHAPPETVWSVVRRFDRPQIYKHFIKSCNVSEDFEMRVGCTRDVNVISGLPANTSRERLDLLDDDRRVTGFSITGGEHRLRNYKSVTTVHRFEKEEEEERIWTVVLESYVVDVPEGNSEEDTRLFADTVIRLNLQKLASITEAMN
Variant | relative binding score [%]
E67R | 7.01
K116L | 0.401
S9N | 24.2
N22K | 45.5
N61D | 29.3
D159R | -3.38
E67C | 12.1
R24K | 43.4
R90E | 6.35
R88C | 12.2
T101E | -1.38
Y141S | -1.06
D65M | 1.78
R32F | 7.33

Block 2
Target: RING finger protein unkempt homolog, zinc fingers 1-6, SBP tag (UNK, Homo sapiens, UniProt Q9C0B0, residues 30-357)
UniProt Q9C0B0, sequence (30-357, looked up): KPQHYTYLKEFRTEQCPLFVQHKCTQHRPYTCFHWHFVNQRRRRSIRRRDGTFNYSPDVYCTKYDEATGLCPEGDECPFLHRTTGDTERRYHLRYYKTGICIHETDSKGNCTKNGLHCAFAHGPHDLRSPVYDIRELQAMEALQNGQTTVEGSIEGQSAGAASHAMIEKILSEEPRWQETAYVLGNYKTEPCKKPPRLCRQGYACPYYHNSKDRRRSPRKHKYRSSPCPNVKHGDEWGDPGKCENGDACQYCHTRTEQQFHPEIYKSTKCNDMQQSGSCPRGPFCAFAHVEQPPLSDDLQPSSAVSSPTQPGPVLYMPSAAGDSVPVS
Technique: RNA Bind-n-Seq
Form: RNA
Sample: in vitro
Concentration: 100 nM
Setting: RNA with constant flanks, vertebrate orthologous sites, ends assumed
Reference: input RNA pool
Reading: higher = stronger binding
All sequences stand within: GGGAGUUCUACAGUCCGACGAUC … CAACAGAGGAUUGAGCAUCA
Oligonucleotide | bound/input enrichment
UGGGUUACUCCUAUUAUUAUCAAGUAGCUGGAAUUGUGAAGGUCGGAGUAGUUAGAUCUUUAGCUUUGAUUCCUUAUUUUUUUUUUUGUAUUACUAUCCAUGUGUAUAAAUUAUUGAUCA | 1.94 ratio
CUCUCUUAGCGAUAGUAUUCCAUCUGUAGCAGAUUCUCACUCGAGUCAUUUUUCUGAGUUUAGUUGCUCAGAUAUGGAGAGUAUGAAAACUUCCUGUAGCCAUGGUUCCAACGACUAUCA | 0.41 ratio
CUGUAAACAGCUCAGGGCAGUAUCCUCCCUAUCCUCCAUACGGCAACCUUAAUCAGGGAUUAGCCAACACUUCAGGGAUGAGUCCCAACAUGAGCCUUACCACCAGCAGCAACAGCAACC | 0.284 ratio
UCUAUACAGUUUCAAAGAUACUUCCCUAUGGGAUGCUUUGGCACUAAAUCUAUUUAAUUGCAGUUACAUAUGUAUUGUUUAUAACUAGCAGUAUGCAUUCAAAGGGGGCUCACUUGGUAU | 0.908 ratio
GUGUUUUGUACAGGGCAUUCUCUGUACUAGUUUGUUGUGGUUAUAAAACAAUUAGCAGAAUAGCCUACAUUUGUAUUUAUUUUCUAUUCCAUACUUCUGCCCACGUUGUUUUCUCUCAAA | 1.42 ratio
GGAGAUACUGAAUAGUAUUAACCAUUUUCGUCUUCCUUCACCUUUUACCCUUCUACCUCUUAGUCUACUUUUUUAAAUUUCAGACUUCAUUGCUCUUUGAAUUGAUAUUUCAGAUUUUCA | 1.02 ratio
CUCUAUGGGCCUCGCAGAGUUGAAAUAAUGGAAGAGGAAAGUGAACAGUAGUAUUCAUUUUAGUAUUUAUGCAUAGGUGUGAAAUAAAUGUUAUUCGUUGAUCAUUUCUACAAUCUAGAG | 1.33 ratio
AUUCAAACCUGUGGUACCAUGGCCUCAUGUUGAAGGAGUAGAAGUGGACUUAGAGUCUAUUAGAAGAAAAAACAAGGCGAAAAAUGAACAAGAGCGCCAUGCUGGAGGAGAUAAGCAGAA | 0.763 ratio

Block 3
Target: Prothrombin, mature alpha-thrombin (F2, Homo sapiens, UniProt P00734)
Technique: aptamer microarray, sandwich
Form: DNA with 2'F-ANA
Sample: in vitro
Concentration: 200 nM
Setting: whole 15-mer aptamer, many near background
With: Cy3 exosite-II aptamer, 400 nM
Reading: higher = stronger binding
Oligonucleotide: GGTTGGTGTGGTTGG
Modification | mean fluorescence intensity [a.u.]
2'F-ANA at 1 2 4 5 6 7 8 9 10 13 15 | 54.2
2'F-ANA at 2 4 6 8 10 11 12 | 180
2'F-ANA at 3 5 9 10 12 14 | 61.5
2'F-ANA at 5 9 10 12 15 | 53
2'F-ANA at 2 3 4 5 6 8 9 11 13 14 15 | 47.6
2'F-ANA at 1 3 4 5 7 8 10 11 12 13 14 | 53.4
2'F-ANA at 3 8 9 10 11 12 | 630
2'F-ANA at 1 2 5 6 8 11 14 15 | 47.2
2'F-ANA at 1 2 3 4 7 8 9 10 11 14 | 53
2'F-ANA at 1 5 8 9 10 12 13 15 | 46.9
2'F-ANA at 2 6 9 12 14 15 | 129
2'F-ANA at 1 2 8 9 11 15 | 170
2'F-ANA at 1 3 4 6 7 8 11 12 14 | 77.4
2'F-ANA at 6 7 9 10 13 14 15 | 108
2'F-ANA at 2 3 4 6 7 8 12 15 | 894
2'F-ANA at 1 3 6 7 9 10 12 14 | 66.7
2'F-ANA at 2 3 5 7 8 9 11 14 | 51.9

Block 4
Target: CEBPB, bZIP domain (human)
Technique: DHFR protein complementation
Sample: yeast
Setting: single substitutions, most at no-binding floor
Reference: wild-type JUN-FOS pair
Reading: higher = stronger binding
Starting sequence: JUN, bZIP domain (human); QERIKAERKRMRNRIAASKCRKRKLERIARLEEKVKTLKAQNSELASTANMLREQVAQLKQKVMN; partner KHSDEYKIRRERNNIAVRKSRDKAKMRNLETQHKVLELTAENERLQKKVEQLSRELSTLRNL
Variant | binding fitness [natural log]
N42R | -1.48
A57E | -0.935
N42V | -1.49
A57R | -1.29
T48H | -1.28
L52E | -1.49
K39W | -1.43
L52W | -1.46
A40W | -1.4
E44C | -1.4
K39Q | -1.29
V35G | -1.45
E33M | -1.47
T48M | -1.29
E54R | -1.42
R30N | -1.23
R53M | -1.13

Block 5
Target: CCNB2, cyclin fold, Cln2 fusion (human)
Technique: yeast growth competition, sequencing
Sample: yeast
Setting: weak parent motif
Reference: not given
Reading: higher = stronger binding
Starting sequence: INSM1 docking peptide (human); PKAIRKLHFEDEV
Variant | normalised enrichment score
H8K | 0.338
L7Q | 0.111
F9P | 0.278
K2L | 0.0508
F9V | 0.216
K2R | 0.0618
F9D | 0.13
I4D | -0.303
H8F | -0.0659
E10N | 0.23
R5F | -0.552
D11N | 0.739
A3S | 0.414
E10R | 0.33
F9M | -0.0238
D11H | 0.421
K2G | 0.153
L7M | 0.485
F9L | 0.369
A3H | 0.259
K6P | -0.177
L7H | 0.144

Excerpt of the above (block 4):
Variant | binding fitness [natural log]
K39W | -1.43
N42R | -1.48
A57R | -1.29
T48M | -1.29
E44C | -1.4
N42V | -1.49
R53M | -1.13
E33M | -1.47
V35G | -1.45
